Assay results from different studies.
A part holds a random share of what one study measured. Values joined by “and” are separate records of one study, mostly repeats; a detail may differ.
Sequence of UniProt Q8IU85 (whole entry, looked up): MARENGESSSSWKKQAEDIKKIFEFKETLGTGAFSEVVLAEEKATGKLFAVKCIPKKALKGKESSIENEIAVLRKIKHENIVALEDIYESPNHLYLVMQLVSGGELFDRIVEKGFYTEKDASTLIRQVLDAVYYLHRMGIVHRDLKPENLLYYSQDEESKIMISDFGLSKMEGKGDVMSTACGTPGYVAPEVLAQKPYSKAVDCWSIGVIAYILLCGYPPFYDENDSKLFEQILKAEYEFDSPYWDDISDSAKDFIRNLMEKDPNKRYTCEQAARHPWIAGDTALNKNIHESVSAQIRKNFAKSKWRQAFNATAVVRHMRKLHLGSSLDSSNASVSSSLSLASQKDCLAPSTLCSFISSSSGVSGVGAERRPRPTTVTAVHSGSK
Sequence of UniProt Q15835 (whole entry, looked up): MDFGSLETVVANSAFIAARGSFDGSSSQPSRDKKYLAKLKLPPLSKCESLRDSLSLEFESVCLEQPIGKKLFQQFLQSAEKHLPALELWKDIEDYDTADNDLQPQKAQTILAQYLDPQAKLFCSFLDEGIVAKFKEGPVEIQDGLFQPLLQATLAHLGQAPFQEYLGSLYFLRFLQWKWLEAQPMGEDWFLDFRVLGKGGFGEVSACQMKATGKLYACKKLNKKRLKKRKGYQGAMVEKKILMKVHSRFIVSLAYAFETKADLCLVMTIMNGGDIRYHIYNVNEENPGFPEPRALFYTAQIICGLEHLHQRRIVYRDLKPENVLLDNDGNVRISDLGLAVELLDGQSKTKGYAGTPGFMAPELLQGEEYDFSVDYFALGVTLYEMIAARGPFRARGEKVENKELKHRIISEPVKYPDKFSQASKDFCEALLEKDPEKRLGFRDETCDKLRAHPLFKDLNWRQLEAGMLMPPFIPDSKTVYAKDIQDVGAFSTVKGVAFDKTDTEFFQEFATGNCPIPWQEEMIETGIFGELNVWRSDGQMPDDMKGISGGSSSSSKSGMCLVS
Sequence of UniProt O60285 (whole entry, looked up): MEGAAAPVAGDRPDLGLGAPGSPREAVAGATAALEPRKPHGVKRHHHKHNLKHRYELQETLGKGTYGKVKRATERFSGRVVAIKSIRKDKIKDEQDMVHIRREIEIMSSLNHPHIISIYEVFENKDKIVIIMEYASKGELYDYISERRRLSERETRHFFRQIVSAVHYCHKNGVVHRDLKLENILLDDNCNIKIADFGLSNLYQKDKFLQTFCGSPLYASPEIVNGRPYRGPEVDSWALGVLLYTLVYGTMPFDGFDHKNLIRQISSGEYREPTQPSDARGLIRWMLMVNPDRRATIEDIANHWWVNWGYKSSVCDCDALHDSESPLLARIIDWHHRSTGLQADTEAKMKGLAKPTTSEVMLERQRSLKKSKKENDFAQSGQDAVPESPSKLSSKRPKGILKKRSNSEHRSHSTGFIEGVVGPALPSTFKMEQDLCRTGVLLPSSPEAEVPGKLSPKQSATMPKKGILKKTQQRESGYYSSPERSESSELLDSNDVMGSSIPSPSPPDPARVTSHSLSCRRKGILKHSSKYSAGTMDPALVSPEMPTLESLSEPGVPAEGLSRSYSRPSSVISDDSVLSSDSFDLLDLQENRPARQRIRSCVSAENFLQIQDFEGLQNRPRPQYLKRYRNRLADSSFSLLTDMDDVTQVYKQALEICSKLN
Sequence of UniProt P52564 (whole entry, looked up): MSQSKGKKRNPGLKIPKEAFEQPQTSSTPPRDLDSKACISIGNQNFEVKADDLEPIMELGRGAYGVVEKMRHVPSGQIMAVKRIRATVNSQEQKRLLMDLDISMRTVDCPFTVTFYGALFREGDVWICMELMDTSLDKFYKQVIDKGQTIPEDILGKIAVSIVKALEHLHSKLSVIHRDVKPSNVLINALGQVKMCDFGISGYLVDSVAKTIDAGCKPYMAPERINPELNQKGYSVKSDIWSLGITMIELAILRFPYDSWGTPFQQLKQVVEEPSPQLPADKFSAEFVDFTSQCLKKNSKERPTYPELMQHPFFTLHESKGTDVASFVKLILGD

Set 1 — read-out: enzyme activity; mode: inhibitor; tested at: 10 µM
Target: Calcium/calmodulin-dependent protein kinase type II subunit alpha (CAMK2A, Homo sapiens, UniProt Q9UQM7)
Sequence of UniProt Q9UQM7 (whole entry, looked up): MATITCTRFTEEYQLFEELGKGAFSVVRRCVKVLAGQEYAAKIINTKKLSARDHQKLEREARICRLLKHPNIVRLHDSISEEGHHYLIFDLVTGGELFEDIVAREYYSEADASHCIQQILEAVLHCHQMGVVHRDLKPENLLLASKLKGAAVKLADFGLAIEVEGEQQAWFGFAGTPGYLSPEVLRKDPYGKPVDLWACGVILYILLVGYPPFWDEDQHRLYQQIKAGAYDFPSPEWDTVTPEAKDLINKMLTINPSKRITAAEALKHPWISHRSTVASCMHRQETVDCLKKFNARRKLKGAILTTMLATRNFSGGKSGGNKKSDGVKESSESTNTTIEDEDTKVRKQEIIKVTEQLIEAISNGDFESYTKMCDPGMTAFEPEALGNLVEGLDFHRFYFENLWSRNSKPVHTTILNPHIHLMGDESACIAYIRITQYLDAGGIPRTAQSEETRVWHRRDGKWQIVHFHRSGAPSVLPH
SMILES | inhibition [%]
CC(C)C[C@H](NP(=O)(O)O[C@@H]1O[C@@H](C)[C@H](O)[C@@H](O)[C@H]1O)C(=O)N[C@@H](Cc1c[nH]c2ccccc12)C(=O)O | -36
CCN(CC)CCc1nc(-c2ccccc2)no1 | 4
O=C(O)CCCCCC(=O)O | 1
CC[C@@H]1/C=C(\C)C[C@H](C)C[C@H](OC)[C@H]2O[C@@](O)(C(=O)C(=O)N3CCCC[C@H]3C(=O)O[C@H](/C(C)=C/[C@@H]3CC[C@@H](O)[C@H](OC)C3)[C@H](C)[C@@H](O)CC1=O)[C@H](C)C[C@@H]2OC | 5
O=c1c(O)c(-c2ccccc2)oc2ccc(O)cc12 | 19
CC(C)=CC(O)C/C(C)=C/COc1c2ccoc2cc2oc(=O)ccc12 (centres unmarked) | -19
OC[C@H]1NC[C@H](O)[C@@H](O)[C@@H]1O | -9
COc1ccc(C[C@@H]2c3cc(OC)c(OC)cc3CC[N@+]2(C)CCC(=O)OCCCCCOC(=O)CC[N@@+]2(C)CCc3cc(OC)c(OC)cc3[C@H]2Cc2ccc(OC)c(OC)c2)cc1OC | -12
O=C(O)[C@H](O)c1ccccc1 | -15
O=Cc1c[nH]c2ccccc12 | -16
C[C@]1(OC(=O)/C=C/c2ccccc2)C[C@@H](O)[C@]2(O)C=CO[C@@H](O[C@@H]3O[C@H](CO)[C@@H](O)[C@H](O)[C@H]3O)[C@@H]21 | -38
C[C@@H]1O[C@@H](O[C@H]2[C@H](O[C@H]3CC[C@@]4(C)[C@@H](CC[C@]5(C)[C@@H]4CC=C4[C@@H]6CC(C)(C)CC[C@]6(C(=O)O[C@@H]6O[C@H](CO[C@@H]7O[C@H](CO)[C@@H](O)[C@H](O)[C@H]7O)[C@@H](O)[C@H](O)[C@H]6O)CC[C@]45C)[C@]3(C)CO)OC[C@H](O)[C@@H]2O)[C@H](O)[C@H](O[C@@H]2O[C@H](CO)[C@@H](O)[C@H](O)[C@H]2O)[C@H]1O | 5
CC(C)(O)[C@@H]1CC[C@](C)([C@H]2[C@@H](O)C[C@@]3(C)[C@@H]4C[C@H](O[C@@H]5O[C@H](CO)[C@@H](O)[C@H](O)[C@H]5O)[C@H]5C(C)(C)[C@@H](O[C@@H]6OC[C@@H](O)[C@H](O)[C@H]6O[C@@H]6O[C@H](CO)[C@@H](O)[C@H](O)[C@H]6O)CC[C@@]56C[C@@]46CC[C@]23C)O1 | 10
COc1cc2ncnc(Nc3ccc(F)c(Cl)c3)c2cc1NC(=O)/C=C/CN1CCCCC1 | -5

Set 2 — read-out: enzyme activity; tested at: 10 µM; reference: untreated control
Compound: Cc1sc(C(=O)NC2COC2)cc1-n1cc(NC(=O)Nc2c(F)cccc2Cl)cn1
target | remaining activity
Tyrosine-protein kinase JAK2 (JAK2, Homo sapiens, UniProt O60674) | 95%
Calcium/calmodulin-dependent protein kinase type 1D (CAMK1D, Homo sapiens, UniProt Q8IU85) | 104%
Tyrosine-protein kinase Yes (YES1, Homo sapiens, UniProt P07947) | 81.2%
Activin receptor type-1 (ACVR1, Homo sapiens, UniProt Q04771) | 104%
Epidermal growth factor receptor (EGFR, Homo sapiens, UniProt P00533) | 95.2%
Calcium/calmodulin-dependent protein kinase type IV (CAMK4, Homo sapiens, UniProt Q16566) | 96.5%
Serine/threonine-protein kinase MRCK alpha (CDC42BPA, Homo sapiens, UniProt Q5VT25) | 102%
Receptor-interacting serine/threonine-protein kinase 2 (RIPK2, Homo sapiens, UniProt O43353) | 87.5%
Serine/threonine-protein kinase PLK2 (PLK2, Homo sapiens, UniProt Q9NYY3) | 93.2%
Dual specificity mitogen-activated protein kinase kinase 6 (MAP2K6, Homo sapiens, UniProt P52564) | 85.4%
Cyclin-dependent kinase 6, with cyclin D3 (CDK6, Homo sapiens, UniProt Q00534) | 93.5%

Set 3 — read-out: enzyme activity; mode: inhibitor; tested at: 77 µM; reference: untreated
Target: DNA polymerase theta, ATPase domain (POLQ, Homo sapiens, UniProt O75417)
Sequence of UniProt O75417 (whole entry, unmodified, looked up): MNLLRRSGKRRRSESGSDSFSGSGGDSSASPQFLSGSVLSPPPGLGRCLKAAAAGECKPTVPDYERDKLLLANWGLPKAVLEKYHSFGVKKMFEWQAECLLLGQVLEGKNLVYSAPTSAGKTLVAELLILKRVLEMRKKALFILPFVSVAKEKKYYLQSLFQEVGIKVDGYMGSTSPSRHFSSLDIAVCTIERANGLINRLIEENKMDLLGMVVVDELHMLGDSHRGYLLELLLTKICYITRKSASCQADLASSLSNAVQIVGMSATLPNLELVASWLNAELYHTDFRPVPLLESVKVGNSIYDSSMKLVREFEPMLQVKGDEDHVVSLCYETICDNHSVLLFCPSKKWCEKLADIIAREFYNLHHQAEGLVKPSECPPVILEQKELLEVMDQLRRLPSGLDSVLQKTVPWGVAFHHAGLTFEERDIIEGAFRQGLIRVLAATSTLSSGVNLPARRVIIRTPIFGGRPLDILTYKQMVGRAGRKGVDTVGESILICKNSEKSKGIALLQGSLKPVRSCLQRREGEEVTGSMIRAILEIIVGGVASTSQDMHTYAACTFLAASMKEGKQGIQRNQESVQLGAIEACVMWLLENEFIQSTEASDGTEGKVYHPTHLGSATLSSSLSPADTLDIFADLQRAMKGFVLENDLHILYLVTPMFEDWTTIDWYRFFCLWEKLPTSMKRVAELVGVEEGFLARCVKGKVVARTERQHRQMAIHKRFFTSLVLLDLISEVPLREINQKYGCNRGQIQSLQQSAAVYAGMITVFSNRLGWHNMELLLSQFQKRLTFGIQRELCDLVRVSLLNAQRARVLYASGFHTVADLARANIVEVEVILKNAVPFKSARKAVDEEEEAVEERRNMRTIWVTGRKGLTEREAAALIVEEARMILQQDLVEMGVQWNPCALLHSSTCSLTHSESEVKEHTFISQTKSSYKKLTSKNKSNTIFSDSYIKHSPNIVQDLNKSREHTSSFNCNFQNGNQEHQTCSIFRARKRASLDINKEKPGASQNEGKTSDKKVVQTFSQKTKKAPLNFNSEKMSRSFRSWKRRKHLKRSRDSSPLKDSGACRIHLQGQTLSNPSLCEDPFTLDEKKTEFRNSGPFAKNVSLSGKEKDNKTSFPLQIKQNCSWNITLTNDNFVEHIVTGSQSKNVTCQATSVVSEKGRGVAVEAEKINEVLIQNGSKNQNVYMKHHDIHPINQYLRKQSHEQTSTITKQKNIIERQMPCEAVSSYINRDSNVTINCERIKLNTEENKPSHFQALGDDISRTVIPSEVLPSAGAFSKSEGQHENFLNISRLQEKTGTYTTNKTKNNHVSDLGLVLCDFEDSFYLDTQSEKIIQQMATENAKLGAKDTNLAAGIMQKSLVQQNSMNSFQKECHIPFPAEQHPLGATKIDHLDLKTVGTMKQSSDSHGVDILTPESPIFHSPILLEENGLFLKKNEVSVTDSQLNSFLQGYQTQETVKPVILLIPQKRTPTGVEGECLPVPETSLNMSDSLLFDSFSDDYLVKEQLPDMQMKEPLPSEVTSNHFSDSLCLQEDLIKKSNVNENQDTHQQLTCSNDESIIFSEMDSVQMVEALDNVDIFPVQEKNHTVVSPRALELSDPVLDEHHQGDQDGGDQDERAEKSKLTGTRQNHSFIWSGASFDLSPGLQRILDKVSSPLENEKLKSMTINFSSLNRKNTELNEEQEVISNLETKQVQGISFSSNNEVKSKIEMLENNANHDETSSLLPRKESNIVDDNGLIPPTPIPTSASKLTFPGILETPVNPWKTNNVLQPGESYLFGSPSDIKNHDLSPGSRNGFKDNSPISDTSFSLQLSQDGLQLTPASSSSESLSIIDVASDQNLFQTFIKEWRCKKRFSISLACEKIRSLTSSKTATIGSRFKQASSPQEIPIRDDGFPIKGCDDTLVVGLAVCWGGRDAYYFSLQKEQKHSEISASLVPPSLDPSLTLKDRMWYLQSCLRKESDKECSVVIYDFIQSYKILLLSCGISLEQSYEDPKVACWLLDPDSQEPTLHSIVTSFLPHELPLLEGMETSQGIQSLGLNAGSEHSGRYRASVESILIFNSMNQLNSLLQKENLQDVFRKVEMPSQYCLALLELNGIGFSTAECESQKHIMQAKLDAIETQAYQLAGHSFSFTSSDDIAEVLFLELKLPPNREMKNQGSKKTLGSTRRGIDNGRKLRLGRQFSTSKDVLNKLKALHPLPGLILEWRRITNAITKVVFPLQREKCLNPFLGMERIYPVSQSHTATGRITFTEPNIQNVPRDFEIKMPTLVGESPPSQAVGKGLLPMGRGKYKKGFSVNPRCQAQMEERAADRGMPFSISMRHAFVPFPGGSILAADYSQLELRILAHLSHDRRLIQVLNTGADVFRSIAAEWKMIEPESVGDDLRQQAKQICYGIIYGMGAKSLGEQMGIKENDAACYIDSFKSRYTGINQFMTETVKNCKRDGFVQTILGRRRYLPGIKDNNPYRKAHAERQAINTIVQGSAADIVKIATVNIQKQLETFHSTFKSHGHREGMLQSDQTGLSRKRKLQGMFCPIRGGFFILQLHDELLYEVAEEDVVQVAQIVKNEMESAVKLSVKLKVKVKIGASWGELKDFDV
SMILES | remaining activity
COc1cc(-c2ccc(/N=N/c3ccc4c(S(=O)(=O)O)cc(S(=O)(=O)O)c(N)c4c3O)c(OC)c2)ccc1/N=N/c1ccc2c(S(=O)(=O)O)cc(S(=O)(=O)O)c(N)c2c1O | 81.7%
CCN(CC)C(=O)N1CCN(C)CC1 | 103%
Cc1nnc(NS(=O)(=O)c2ccc(N)cc2)s1 | 98.7% and 99.3%
CC(C)(C)C#Cc1cc(N(C(=O)[C@H]2CC[C@H](C)CC2)[C@H]2CC[C@H](O)CC2)c(C(=O)O)s1 | 92.7%
C#Cc1cccc(Nc2ncnc3cc4c(cc23)OCCOCCOCCO4)c1 | 104%
Cn1cnc2cc3c(Nc4cccc(Br)c4)ncnc3cc21 | 114%
CC(C)c1cnn2c(NCc3ccccc3)cc(NCCCCCCN)nc12 | 90.9%
CC[N+](C)(CC)CCC[n+]1c(-c2ccccc2)c2cc(N)ccc2c2ccc(N)cc21 | 67.2%
Cc1ccc(C(=O)Cn2c3c(sc2=N)CCCC3)cc1 | 78.6%
O=c1[nH]c(=S)[nH]c(-c2ccccc2)c1Cc1c(O)ccc2ccccc12 | 107%
O=S(=O)(O)NC1CCCCC1 | 103%
O=c1[nH]ccc2c(O)cccc12 | 108%

Set 4 — tested at: 1 µM
Compound: CN(C)CC#Cc1ccc(OCCCc2sc(N3CCc4cccc(C(=O)Nc5nc6ccccc6s5)c4C3)nc2C(=O)O)c(F)c1
target | read-out | method | remaining binding
Ephrin type-A receptor 4 (EPHA4, Homo sapiens, UniProt P54764) | cell-free assay | competition with immobilised ligand | 88%
NUAK family SNF1-like kinase 1 (NUAK1, Homo sapiens, UniProt O60285) | cell-free assay | competition with immobilised ligand | 80%
Mitogen-activated protein kinase kinase kinase 20 (MAP3K20, Homo sapiens, UniProt Q9NYL2) | cell-free assay | competition with immobilised ligand | 100%
Receptor-type tyrosine-protein kinase FLT3 (FLT3, Homo sapiens, UniProt P36888, F691L/ITD) | cell-free assay | competition with immobilised ligand | 100%
Rhodopsin kinase GRK1 (GRK1, Homo sapiens, UniProt Q15835) | cell-free assay | competition with immobilised ligand | 95%
Serine/threonine-protein kinase MRCK gamma (CDC42BPG, Homo sapiens, UniProt Q6DT37) |  | competition binding | 90%
Calcium/calmodulin-dependent protein kinase type 1D (CAMK1D, Homo sapiens, UniProt Q8IU85) | cell-free assay | competition with immobilised ligand | 90%
Serine/threonine-protein kinase MARK1 (MARK1, Homo sapiens, UniProt Q9P0L2) | cell-free assay | competition with immobilised ligand | 93%
Fibroblast growth factor receptor 3 (FGFR3, Homo sapiens, UniProt P22607) | cell-free assay | competition with immobilised ligand | 98%
Serine/threonine-protein kinase tousled-like 2 (TLK2, Homo sapiens, UniProt Q86UE8) | cell-free assay | competition with immobilised ligand | 100%
TGF-beta receptor type-1 (TGFBR1, Homo sapiens, UniProt P36897) | cell-free assay | competition with immobilised ligand | 100%
Atypical kinase COQ8A, mitochondrial (COQ8A, Homo sapiens, UniProt Q8NI60) | cell-free assay | competition with immobilised ligand | 100%
Phosphatidylinositol 5-phosphate 4-kinase type-2 gamma (PIP4K2C, Homo sapiens, UniProt Q8TBX8) | cell-free assay | competition with immobilised ligand | 100%
Serine/threonine-protein kinase 32B (STK32B, Homo sapiens, UniProt Q9NY57) | cell-free assay | competition with immobilised ligand | 95%
Protein kinase C iota type (PRKCI, Homo sapiens, UniProt P41743) | cell-free assay | competition with immobilised ligand | 100%
Ribosomal protein S6 kinase alpha-6, N-terminal kinase domain (RPS6KA6, Homo sapiens, UniProt Q9UK32) | cell-free assay | competition with immobilised ligand | 90%

A few entries again (set 1):
SMILES | inhibition [%]
COc1cc2ncnc(Nc3ccc(F)c(Cl)c3)c2cc1NC(=O)/C=C/CN1CCCCC1 | -5
CC(C)C[C@H](NP(=O)(O)O[C@@H]1O[C@@H](C)[C@H](O)[C@@H](O)[C@H]1O)C(=O)N[C@@H](Cc1c[nH]c2ccccc12)C(=O)O | -36
O=C(O)[C@H](O)c1ccccc1 | -15
COc1ccc(C[C@@H]2c3cc(OC)c(OC)cc3CC[N@+]2(C)CCC(=O)OCCCCCOC(=O)CC[N@@+]2(C)CCc3cc(OC)c(OC)cc3[C@H]2Cc2ccc(OC)c(OC)c2)cc1OC | -12
O=C(O)CCCCCC(=O)O | 1
CC(C)=CC(O)C/C(C)=C/COc1c2ccoc2cc2oc(=O)ccc12 (centres unmarked) | -19
O=c1c(O)c(-c2ccccc2)oc2ccc(O)cc12 | 19
O=Cc1c[nH]c2ccccc12 | -16
